Published values of several laboratories.
± marks the error that the study gave.
Matrix: plasma

SMILES | assay | system | setting | AUC(0-inf)
[2H]C([2H])([2H])NC(=O)c1ccc(N2C(=S)N(c3ccc(C#N)c(C(F)(F)F)c3)C(=O)C2(C)C)cc1F |  | healthy male human | oral, 160 mg, fed, single dose | 716000 ± 200000 ng·h/mL
CCCOc1ccc(S(N)(=O)=O)cc1-c1nc2c(CCC)nn(C)c2c(=O)[nH]1 |  | healthy male humans | oral, 200 mg of udenafil | 5320 ± 2640 ng·h/mL
CN1CCC[C@]1(C)/C=C/S(=O)(=O)NC(=O)Nc1c2c(cc3c1CCC3)CCC2 |  | human | oral, 100 mg twice daily, day 14, multiple ascending dose | 219000 ng·h/mL
Cn1c(=O)oc2ccc(-c3ccc(CC(C#N)NC(=O)C4CNCCCO4)c(F)c3)cc21 (stereo not drawn) |  | human volunteers | 15 mg single dose, fasted, geometric mean | 835 ng·h/mL
O=C(CCc1ccc(CNC(C(=O)O)C2CCCCC2)cn1)NO (stereo not drawn) |  | healthy male humans | oral, 40 mg, single dose, geometric mean | 243 ng·h/mL
CC1C(c2c(F)ccc(F)c2F)CC(N[14C](=O)c2cnc3c(c2)CC2(C3)C(=O)Nc3ncccc32)C(=O)N1CC(F)(F)F (stereo not drawn) | liquid scintillation counting, measured: total radioactivity | human | oral, 50 mg, single dose, 14C-labelled | 2970 ± 779 ng-eq·h/mL
O=C(CCc1ccc(CNC(C(=O)OC2CCCC2)C2CCCCC2)cn1)NO (stereo not drawn) |  | human | oral, 20 mg single dose, geometric mean | 40.1 ng·h/mL
CCc1c2c(nc3ccc(O)cc13)-c1cc3c(c(=O)n1C2)COC(=O)[C@]3(O)CC |  | human patients | intravenous, 100 mg/m^2 of parent drug | 792 ng·h/mL
CC(C)(O)c1ncc([S@](N)(=O)=NC(=O)Nc2c3c(cc4c2CCC4)CCC3)s1 |  | healthy human fasted | oral, 100 mg single dose, CT formulation | 92000 ng·h/mL

For quick reference, copied from above:
SMILES | assay | system | setting | AUC(0-inf)
Cn1c(=O)oc2ccc(-c3ccc(CC(C#N)NC(=O)C4CNCCCO4)c(F)c3)cc21 (stereo not drawn) |  | human volunteers | 15 mg single dose, fasted, geometric mean | 835 ng·h/mL
